Measured values from different studies.
Values joined by “and” are separate records of one study, mostly repeats; a detail may differ. Numbers after ± are the reported error. ≈ marks a conversion by molar mass, not a printed value.
CYP1A2: Cytochrome P450 1A2 (CYP1A2, Homo sapiens, UniProt P05177)
cyp121: Mycocyclosin synthase (cyp121, Mycobacterium tuberculosis, UniProt P9WPP7)

The chains behind the UniProt entries cited, without tags or fusion partners. Residues count along the entry.
UniProt P05177, whole entry: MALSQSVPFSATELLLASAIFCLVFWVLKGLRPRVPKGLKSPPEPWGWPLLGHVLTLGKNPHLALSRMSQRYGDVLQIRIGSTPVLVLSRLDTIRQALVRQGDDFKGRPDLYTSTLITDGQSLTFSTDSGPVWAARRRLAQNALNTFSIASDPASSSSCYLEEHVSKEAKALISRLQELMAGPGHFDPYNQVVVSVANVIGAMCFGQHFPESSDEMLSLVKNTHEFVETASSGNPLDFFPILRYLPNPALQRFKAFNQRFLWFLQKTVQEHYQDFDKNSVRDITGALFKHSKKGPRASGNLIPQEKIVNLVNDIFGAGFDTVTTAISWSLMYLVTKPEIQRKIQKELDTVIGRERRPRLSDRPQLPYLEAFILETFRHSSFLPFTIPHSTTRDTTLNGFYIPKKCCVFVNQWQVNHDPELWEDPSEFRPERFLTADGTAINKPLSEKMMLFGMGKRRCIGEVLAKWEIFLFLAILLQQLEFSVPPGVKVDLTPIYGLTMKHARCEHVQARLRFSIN
UniProt P9WPP7, whole entry: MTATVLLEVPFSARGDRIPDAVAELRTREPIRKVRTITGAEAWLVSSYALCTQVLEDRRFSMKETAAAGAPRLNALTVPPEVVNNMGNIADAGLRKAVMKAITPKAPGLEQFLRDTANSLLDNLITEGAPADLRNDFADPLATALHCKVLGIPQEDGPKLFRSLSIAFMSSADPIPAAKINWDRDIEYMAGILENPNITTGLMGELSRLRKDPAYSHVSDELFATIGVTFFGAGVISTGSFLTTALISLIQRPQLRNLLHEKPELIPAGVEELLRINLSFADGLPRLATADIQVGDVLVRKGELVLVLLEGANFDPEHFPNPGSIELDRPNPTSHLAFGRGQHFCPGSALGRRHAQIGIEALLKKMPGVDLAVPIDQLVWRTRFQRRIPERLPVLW
UniProt P08684, whole entry: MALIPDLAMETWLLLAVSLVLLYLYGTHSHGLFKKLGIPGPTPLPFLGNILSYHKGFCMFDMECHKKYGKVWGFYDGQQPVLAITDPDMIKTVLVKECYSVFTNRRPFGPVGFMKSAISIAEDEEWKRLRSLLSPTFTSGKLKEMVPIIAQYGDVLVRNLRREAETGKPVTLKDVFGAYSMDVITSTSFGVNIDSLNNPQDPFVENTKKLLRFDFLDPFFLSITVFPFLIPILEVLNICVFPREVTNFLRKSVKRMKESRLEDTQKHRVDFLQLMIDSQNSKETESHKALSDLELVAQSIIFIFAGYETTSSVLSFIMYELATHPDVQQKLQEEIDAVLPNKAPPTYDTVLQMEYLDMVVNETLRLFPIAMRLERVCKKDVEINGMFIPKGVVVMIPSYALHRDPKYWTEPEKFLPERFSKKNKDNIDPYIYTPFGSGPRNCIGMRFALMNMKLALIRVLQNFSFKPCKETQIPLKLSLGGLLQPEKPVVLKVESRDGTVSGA
UniProt P21728, whole entry: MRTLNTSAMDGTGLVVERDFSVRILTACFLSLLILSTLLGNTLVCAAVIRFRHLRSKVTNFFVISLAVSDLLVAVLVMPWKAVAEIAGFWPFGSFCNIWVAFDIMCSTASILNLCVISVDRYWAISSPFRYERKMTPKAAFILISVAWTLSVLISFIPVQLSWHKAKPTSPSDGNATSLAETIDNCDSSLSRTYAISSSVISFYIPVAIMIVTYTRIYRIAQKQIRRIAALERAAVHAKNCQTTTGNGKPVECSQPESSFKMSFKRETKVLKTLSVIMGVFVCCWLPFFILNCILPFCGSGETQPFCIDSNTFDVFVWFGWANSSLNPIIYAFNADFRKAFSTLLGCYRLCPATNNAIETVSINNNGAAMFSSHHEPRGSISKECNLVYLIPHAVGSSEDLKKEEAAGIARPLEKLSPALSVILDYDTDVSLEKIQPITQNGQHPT
UniProt P35353, 24-415 limits assumed: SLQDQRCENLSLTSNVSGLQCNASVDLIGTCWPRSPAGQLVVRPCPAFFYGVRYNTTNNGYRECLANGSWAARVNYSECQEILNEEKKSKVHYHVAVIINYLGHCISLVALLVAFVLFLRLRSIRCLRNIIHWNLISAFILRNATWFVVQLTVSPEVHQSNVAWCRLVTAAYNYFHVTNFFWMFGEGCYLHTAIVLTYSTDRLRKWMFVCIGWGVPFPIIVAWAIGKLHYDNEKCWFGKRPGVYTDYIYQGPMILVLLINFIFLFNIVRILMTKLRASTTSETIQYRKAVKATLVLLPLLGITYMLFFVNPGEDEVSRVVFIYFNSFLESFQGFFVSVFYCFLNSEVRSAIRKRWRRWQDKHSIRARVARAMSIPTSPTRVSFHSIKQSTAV

`O=C(CC1CC2CCC1C2)Nc1nnc(-c2ccccc2Cl)s1` (centres unmarked) has a CC50 of 9.2 to 18 µM (Vero).
For `Cc1ccc2nc(-c3ccc4nc(-c5ccc(NC(=O)c6cccc(Cl)c6)cc5)sc4c3)sc2c1S(=O)(=O)O`, the remaining compound was 100% (PBS with 50% acetonitrile; 48 h, pH 7.4, room temperature).
`COc1ccc(S(=O)(=O)N2CCCN(CC(=O)Nc3ccccc3OC)CC2)cc1` gave an IC50 of 4.6 µM (Cytochrome P450 3A4 (CYP3A4, Homo sapiens, UniProt P08684); enzyme activity, inhibitor).
`[2H]C1(C(=O)Nc2ccc3cc(C(=O)O)ccc3c2)CCN(S(=O)(=O)c2ccc(C)cc2C)CC1` has an intrinsic clearance of 43.3 µL/min/mg (rat liver microsomes).
With `NC[C@@H](NC[C@@H]1CCCN1C[C@@H](CO)NC[C@@H](NCCc1ccc(-c2ccccc2)cc1)c1ccccc1)c1ccccc1` the IC90 was 15.1 µM (Acinetobacter baumannii; bacterial growth; compound alone).
With `C=CC(=O)Nc1cc(-n2c(=O)ccc3cnc4ccc(-c5cn[nH]c5)cc4c32)ccc1C` the GI50 was greater than 10 µM (DU-145; cell growth; 72 h).
`Cc1ccc(NC(=O)C2CC3CCC2C3)c(C)c1` (centres unmarked) gave an IC50 of 10.5 µM (CYP1A2; enzyme activity, inhibitor).
For `CN(C(=O)Cc1cccc2ccccc12)[C@@H]1CCCC[C@H]1N1CCCC1`, the intrinsic clearance was 2.3 mL/min/g (human liver microsomes; 0.5 µM, together with: NADPH).
For `O=C(NC1CCN(c2ncnc3[nH]cnc23)CC1)c1cccc(NS(=O)(=O)c2ccc([N+](=O)[O-])cc2)c1`, the viability was 96.3% (A549-ACE2; 66.67 µM).
With `COCn1cc(-c2cc([C@@H](C)NC(=O)c3cc(OCCN(C)C)ccc3C)c3ccccc3n2)cn1` the viability was 103% and 104% (Vero E6 cells; 7.812 µM).
`Cc1ccccc1S(=O)(=O)Nc1cccc(C(=O)NC2CCN(c3ncnc4[nH]cnc34)CC2)c1` gave a viability of 104% (A549-ACE2; 0.2743 µM).
`O=C(Nc1ccccc1OS(=O)(=O)c1ccc(OC(F)(F)F)cc1)c1cnccn1` — result for cytotoxicity: “not toxic” (1321-N1, MCF7, HEK-293T; MTT; up to 100 µM).
The maximum solubility of `CC(C)[C@H](N)C(=O)N[C@@H](Cc1ccc(O)cc1)C(=O)N[C@@H](Cc1ccc(O)cc1)C(=O)N[C@@H](CCCNC(=N)N)C(=O)O` is reported as no less than 10000 µM (citrate phosphate buffer; pH 2.6).
With `Cc1ccc(S(=O)(=O)Nc2cccc(C(=O)NC3CCN(c4ncnc5[nH]cnc45)CC3)c2)cc1Cl` the viability was 103% (A549-ACE2; 0.03048 µM).
For `NC[C@@H](NC[C@@H]1CCCN1C[C@@H](CO)NC[C@@H](NCCc1ccc(Cl)c(Cl)c1)c1ccccc1)c1ccccc1`, “potentiation of amikacin” read 1.7 fold (Klebsiella pneumoniae; bacterial growth; 24 µM, fold shift of IC50, together with: amikacin).
With `COc1ccc(NC(=O)CN2CCCN(S(=O)(=O)c3ccccc3)CC2)c(OC)c1` the IC50 was greater than 20 µM (CYP1A2; enzyme inhibition, inhibitor).
With `O=C(NC1CCN(c2ncnc3[nH]cnc23)CC1)c1cccc(NS(=O)(=O)c2ccc(Cl)cc2)c1` the viability was 103% (A549-ACE2; 0.2743 µM).
`O=C(NCCNCCO)c1cc2c([nH]c3ccccc32)c(-c2cc(Cl)c(Cl)c(Cl)c2)n1` gave a kinetic solubility of 3.05 µM (≈ 1.46 µg/mL) (pH 7.4).
The MRT(0-inf) of `CC1(C)CC[C@]2(C(=O)O)CC[C@]3(C)C(=CC[C@@H]4[C@@]5(C)CC[C@H](OC(=O)NCc6ccccc6)C(C)(C)[C@@H]5CC[C@]43C)[C@@H]2C1` is reported as 9.22 h (C57BL/6 mice, plasma; intraperitoneal, 85 µmol/kg).
With `O=C(NC1CCCCC1)Oc1ccc(O)c(-c2ccccc2)c1` the Cmax ratio was 2 fold (mouse, brain; intraperitoneal, 1 mg/kg; baseline: cpd over URB597).
With `COc1cccc2c(N3CCC(CCP(=O)(O)O)CC3)ncnc12` the half-life was 0.167 to 0.25 h (mouse, serum; intravenous and subcutaneous, 10 mg/kg).
`CN(C(=O)Cc1cccc(Cl)c1)[C@@H]1CCCC[C@H]1N1CCCC1` has an intrinsic clearance of 14 mL/min/g (mouse liver microsomes; 0.5 µM, together with: NADPH).
With `CC(c1ccc(-c2ccsc2)cc1)n1ccnc1` (centres unmarked) the Kd was 16.9 ± 2.2 µM (cyp121; binding).
The inhibition of `COc1ccc(CN[C@@H]2CO[C@H](C(c3ccccc3)c3ccccc3)C[C@H]2O)cc1` is reported as 2.5% (DRD1 (Homo sapiens, UniProt P21728); radioligand binding; 10 µM, together with: [3H]SCH23390).
With `NCCNCCSc1ccccc1` the solubility was 985 ± 40 mg/mL (≈ 5020 mM) (shake flask; simulated intestinal fluid; 24 h, pH 6.8, 37 °C).
For `CCC(c1ccc(-c2ccc(SC)cc2)cc1)n1ccnc1` (centres unmarked), the Kd was 3 ± 0.74 µM (cyp121; binding).
`CC(C)C[C@@H](NC(=O)[C@H](NC(=O)[C@H]1CCCN1)[C@H](C)O)C(=O)N[C@H](Cc1c[nH]cn1)C(=O)N[C@@H](C(=O)N[C@H](Cc1c[nH]cn1)C(=O)N[C@H](CC(N)=O)C(=O)N[C@H](CCCNC(=N)N)C(=O)N[C@H](CCCNC(=N)N)C(=O)N[C@H](CCCNC(=N)N)C(=O)N[C@H](CCCNC(=N)N)C(=O)N[C@H](CCCNC(=N)N)C(N)=O)[C@H](C)O`: “incidence of abnormal EEG” 16.7% (adverse events, phase I single ascending dose; healthy male subjects; 4 mg, grade 1).
`O=C(NC1CCN(c2ncnc3[nH]cnc23)CC1)c1cccc(S(=O)(=O)Nc2ccc(Cl)cc2)c1` has a viability of 94.3% (A549-ACE2; 66.67 µM).
The radioactivity uptake of `[11CH3]Nc1ccc(C(=O)C2CCN(C3Cc4ccccc4CC3O)CC2)cc1` (single isomer, unassigned) is reported as 0.89 %ID/g (Sprague-Dawley rat, pancreas; intravenous, dose not given, 5 min).
For `COCCN(CCOC)c1nc(C)nc2c(-c3c(OC)cc([76Br])cc3OC)c(C)nn12`, the uptake ratio was 189% (Corticotropin-releasing factor receptor 1 (Rattus norvegicus, UniProt P35353); ex vivo autoradiography; rat, awake, frontal cortex; intravenous, 1 h; baseline: choroid plexus).
`CNCCNC(=O)c1cc2c([nH]c3c(C)cccc32)c(-c2ccc(Cl)c(Cl)c2)n1` has a kinetic solubility of 103 µM (≈ 44 µg/mL) (pH 7.4).
For `COc1ccc(S(=O)(=O)Nc2cccc(C(=O)NC3CCN(c4ncnc5[nH]cnc45)CC3)c2)cc1`, the viability was 107% (A549-ACE2; 0.823 µM).

Repeated from above:
With `O=C(NC1CCCCC1)Oc1ccc(O)c(-c2ccccc2)c1` the Cmax ratio was 2 fold (mouse, brain; intraperitoneal, 1 mg/kg; baseline: cpd over URB597).
With `COc1cccc2c(N3CCC(CCP(=O)(O)O)CC3)ncnc12` the half-life was 0.167 to 0.25 h (mouse, serum; intravenous and subcutaneous, 10 mg/kg).
`CN(C(=O)Cc1cccc(Cl)c1)[C@@H]1CCCC[C@H]1N1CCCC1` has an intrinsic clearance of 14 mL/min/g (mouse liver microsomes; 0.5 µM, together with: NADPH).
